Experimental data from different studies.
Lines come from different studies, so protocols differ. Numbers after ± are the reported error.
B1: enzyme E416A (Streptomyces platensis, UniProt A0A0A0V031); chain MQHTTIGDVLREHRRSHPGRTALVDGPVRLTWPELDDRVNRLAGSLAASGIGRGDRIMWLGQNSFRVYELIAAAGKLGAMVCVGYWRWAPPEMEFALRDFDPHLVVWQHQEIHETVARTREALGSDDTARWLRHDSAPQDPDGYEAFLAAGGLADPDLDIDPDSPVLVLYTAAMSGRQCGSLLSHTNLIAMATAAAWLGDIDHTTAFLNSGPMFHIGNHQFWGMPTLLMAGKNVIVRRVVAEEVRDLLVAEECTHAFLMPPTVAEIVRLNRDTGHDLSRLRATVAPHLWEGMATTDTSRFTRSGAAAGRGYGQTELSGFAVTAAYGGPAAGNAGRPGPGLTVRVLDTAGRECAVGEAGEICARGTVVHRGYWNRDEVNAHRFRSGWWHTTDLGRREPDGSLTFLGTTTRMLKSAAANIFPAEVENCIEQHPAVREAAVIGVPNTRWAQDVKAVVVLEPDAGVSEQEIIDHCRPRIASYKKPKSVAFAAALPRTVSGARDYDALDKEYGGGGYPGAATLGPGR
B2: dmaW (Aspergillus fumigatus, UniProt Q50EL0); chain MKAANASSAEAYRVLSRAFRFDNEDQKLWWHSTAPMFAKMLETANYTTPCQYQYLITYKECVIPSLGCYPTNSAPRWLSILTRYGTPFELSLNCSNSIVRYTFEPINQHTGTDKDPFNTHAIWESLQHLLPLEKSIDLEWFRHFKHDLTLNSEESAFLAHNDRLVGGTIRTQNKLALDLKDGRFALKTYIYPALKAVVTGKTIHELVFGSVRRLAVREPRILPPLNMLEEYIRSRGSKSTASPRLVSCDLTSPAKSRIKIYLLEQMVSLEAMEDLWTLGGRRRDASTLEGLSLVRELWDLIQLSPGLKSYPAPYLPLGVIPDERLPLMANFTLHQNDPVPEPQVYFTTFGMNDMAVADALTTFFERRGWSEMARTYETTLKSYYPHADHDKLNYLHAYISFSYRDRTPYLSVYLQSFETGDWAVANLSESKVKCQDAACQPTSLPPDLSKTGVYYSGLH
B3: enzyme A172S/A173G/A497K/C179K/M174T/Q178P (Streptomyces platensis, UniProt A0A0A0V031); chain MQHTTIGDVLREHRRSHPGRTALVDGPVRLTWPELDDRVNRLAGSLAASGIGRGDRIMWLGQNSFRVYELIAAAGKLGAMVCVGYWRWAPPEMEFALRDFDPHLVVWQHQEIHETVARTREALGSDDTARWLRHDSAPQDPDGYEAFLAAGGLADPDLDIDPDSPVLVLYTSGTSGRPKGSLLSHTNLIAMATAAAWLGDIDHTTAFLNSGPMFHIGNHQFWGMPTLLMAGKNVIVRRVVAEEVRDLLVAEECTHAFLMPPTVAEIVRLNRDTGHDLSRLRATVAPHLWEGMATTDTSRFTRSGAAAGRGYGQTELSGFAVTAAYGGPAAGNAGRPGPGLTVRVLDTAGRECAVGEAGEICARGTVVHRGYWNRDEVNAHRFRSGWWHTTDLGRREPDGSLTFLGTTTRMLKSAAENIFPAEVENCIEQHPAVREAAVIGVPNTRWAQDVKAVVVLEPDAGVSEQEIIDHCRPRIASYKKPKSVAFAAALPRTVSGKRDYDALDKEYGGGGYPGAATLGPGR
UniProt P21729, sequence (whole entry, looked up): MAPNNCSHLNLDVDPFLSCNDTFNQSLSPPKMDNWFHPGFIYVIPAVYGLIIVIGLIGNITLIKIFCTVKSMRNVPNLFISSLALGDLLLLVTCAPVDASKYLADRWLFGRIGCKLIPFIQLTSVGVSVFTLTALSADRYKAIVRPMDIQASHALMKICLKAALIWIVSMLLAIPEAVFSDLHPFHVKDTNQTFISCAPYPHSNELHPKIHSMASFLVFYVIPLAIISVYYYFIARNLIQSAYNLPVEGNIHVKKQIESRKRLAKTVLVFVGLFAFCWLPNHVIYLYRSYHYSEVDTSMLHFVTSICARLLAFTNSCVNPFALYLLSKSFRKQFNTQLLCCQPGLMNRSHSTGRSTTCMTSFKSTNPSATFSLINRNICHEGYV

`C=Cc1c(C)c2cc3nc(c4c5[nH]c(cc6nc(cc1[nH]2)C(C)=C6CC)c(C)c5C(=O)C4)[C@@H](CCC(=O)NCC(=O)N1CCC[C@H]1C(=O)N[C@@H](CC(C)C)C(=O)NCC(=O)N[C@@H](Cc1ccccc1)C(=O)N[C@@H](CCCNC(=N)N)C(=O)N[C@H](C(=O)NCC(=O)N[C@@H](CCCCN)C(N)=O)C(C)C)[C@@H]3C` has a fluorescent cells of 92 ± 3% (OA patient chondrocytes; flow cytometry, refers to: cellular uptake; 1 µM, 24 h).
`C[C@H]1COc2c(N3CCN(C)CC3)c(F)cc3c(=O)c(C(=O)N[C@@H](CCCNC(=N)N)C(=O)N[C@@H](Cc4ccc(-c5ccccc5)cc4)C(=O)N[C@@H](CCCNC(=N)N)C(=O)N[C@@H](Cc4ccc(-c5ccccc5)cc4)C(=O)N[C@@H](CCCNC(=N)N)C(N)=O)cn1c23` gave a hemolysis of 0% (human erythrocytes; 6.25 µM, 1 h, 37 °C; baseline: Triton X-100).
For `CC[C@H](C)[C@H](NC(=O)[C@H](CCCCN)NC(=O)[C@H](C)NC(=O)CNC(=O)[C@H](C)NC(=O)[C@H](CCCCN)NC(=O)[C@H](CC(C)C)NC(=O)[C@H](CCCNC(=N)N)NC(=O)[C@H](Cc1ccccc1)NC(=O)[C@H](CC(N)=O)NC(=O)[C@H](Cc1ccccc1)NC(=O)[C@@H](N)CSCCC(=O)c1ccc2cc(N(C)C)ccc2c1)C(=O)N[C@@H](CCCNC(=N)N)C(=O)N[C@@H](Cc1ccccc1)C(=O)NCC(N)=O`, the viability was roughly 65% (HeLa; MTT; up to 10 µM, up to 1 h, serum-free).
With `CCCNC(=O)[C@H](CC(C)C)NC(=O)[C@H](Cc1c[nH]cn1)NC(=O)CNC(=O)[C@@H](NC(=O)[C@H](C)NC(=O)[C@H](Cc1c[nH]c2ccccc12)NC(=O)[C@H](CCC(N)=O)NC(=O)[C@@H](Cc1ccccc1)NC(=O)CCCCCNC(=O)CN1CCN(CC(=O)O)CCN(CC(=O)O)CCN(CC(=O)O)CC1)C(C)C` [indium-111 labelled] the tissue uptake was 0.11 ± 0.04 %ID/g (Gastrin-releasing peptide receptor (Mus musculus, UniProt P21729); biodistribution; CF-1 mice, spleen; intravenous, 1 h, with: bombesin 100 µg, blocking).
`N=C(N)NCCC[C@@H]1NC(=O)[C@H](CCCCNC(=O)CCOCCOCCOCCOCCNC(=O)CN2CCN(CC(=O)O)CCN(CC(=O)O)CCN(CC(=O)O)CC2)NC(=O)[C@@H](Cc2ccccc2)NC(=O)[C@H](CC(=O)O)NC(=O)CNC1=O` [indium-111 labelled] — result for “tumour to tissue ratio”: 2.06 ± 0.32 (athymic nude mice, female, U-87 MG glioma xenograft, tumour and heart; intravenous, 0.5 h; baseline: tumour over heart).
With `ATTTAAGATATCTTAAAT (dsDNA)` the Kd was 14.4 nM (repressor C2 1-216 (Salmonella phage P22, UniProt P69202); filter binding; double-stranded DNA, one strand shown; NaCl 50 mM).
With `B1 (enzyme E416A)` the kcat/Km was 500000 M⁻¹ s⁻¹ (C[C@@]12CCC[C@@](C)(C(=O)OP(=O)(O)OC[C@H]3O[C@@H](n4cnc5c(N)ncnc54)[C@H](O)[C@@H]3O)[C@H]1C[C@@H](O)[C@]13C[C@H]4C[C@H](O[C@@]4(C)C1)[C@@H]23; steady-state kinetics; pH 7.8, 25 °C).
`N=C(N)NCCC[C@@H]1NC(=O)[C@H](CCCCNC(=O)CC[C@H](NC(=O)CCOCCOCCOCCOCCNC(=O)CN2CCN(CC(=O)O)CCN(CC(=O)O)CCN(CC(=O)O)CC2)C(=O)NCCCC[C@@H]2NC(=O)[C@@H](Cc3ccccc3)NC(=O)[C@H](CC(=O)O)NC(=O)CNC(=O)[C@H](CCCNC(=N)N)NC2=O)NC(=O)[C@@H](Cc2ccccc2)NC(=O)[C@H](CC(=O)O)NC(=O)CNC1=O` [indium-111 labelled] gave a tissue uptake of 1.03 ± 0.26 %ID/g (female athymic nude mice, heart; intravenous, 3 µCi, 0.5 h, U-87 MG glioma xenograft).
`B2 (dmaW)` gave a kcat/Km of 36.7 ± 6.67 M⁻¹ s⁻¹ (O=P(O)(O)OP(=O)(O)OCC=C1CCCCC1; steady-state kinetics; pH 7.5, 35 °C).
For `CCCC[C@H](NC(=O)CCCCCCCNC(=O)c1ccc(NN)nc1)C(=O)N[C@H]1CC(=O)NCCCC[C@@H](C(N)=O)NC(=O)[C@H](Cc2c[nH]c3ccccc23)NC(=O)[C@H](CCCNC(=N)N)NC(=O)[C@@H](Cc2ccccc2)NC(=O)[C@H](Cc2c[nH]cn2)NC1=O` [technetium-99m labelled], the uptake was 0.44 ± 0.64 %ID/g (C57 mouse, B16/F1 melanoma, pancreas; intravenous, 4 h).
For `N=C(N)NCCC[C@@H]1NC(=O)[C@H](CCCCNC(=O)CCOCCOCCOCCOCCNC(=O)CC[C@H](NC(=O)CCOCCOCCOCCOCCNC(=O)CC[C@H](NC(=O)CN2CCN(CC(=O)O)CCN(CC(=O)O)CCN(CC(=O)O)CC2)C(=O)NCCOCCOCCOCCOCCC(=O)N[C@@H](CCC(=O)NCCOCCOCCOCCOCCC(=O)NCCCC[C@@H]2NC(=O)[C@@H](Cc3ccccc3)NC(=O)[C@H](CC(=O)O)NC(=O)CNC(=O)[C@H](CCCNC(=N)N)NC2=O)C(=O)NCCOCCOCCOCCOCCC(=O)NCCCC[C@@H]2NC(=O)[C@@H](Cc3ccccc3)NC(=O)[C@H](CC(=O)O)NC(=O)CNC(=O)[C@H](CCCNC(=N)N)NC2=O)C(=O)NCCOCCOCCOCCOCCC(=O)NCCCC[C@@H]2NC(=O)[C@@H](Cc3ccccc3)NC(=O)[C@H](CC(=O)O)NC(=O)CNC(=O)[C@H](CCCNC(=N)N)NC2=O)NC(=O)[C@@H](Cc2ccccc2)NC(=O)[C@H](CC(=O)O)NC(=O)CNC1=O` [indium-111 labelled], the tissue uptake was 0.37 ± 0.07 %ID/g (female athymic nude mice, heart; intravenous, 3 µCi, 72 h, U-87 MG glioma xenograft).
`B3` gave a kcat of 14 s⁻¹ (C[C@@]12CCC[C@@](C)(C(=O)OP(=O)(O)OC[C@H]3O[C@@H](n4cnc5c(N)ncnc54)[C@H](O)[C@@H]3O)[C@H]1C[C@@H](O)[C@]13C[C@H]4C[C@H](O[C@@]4(C)C1)[C@@H]23; steady-state kinetics; pH 7.8, 25 °C).
With `ATGATCAGTACGATGTTCACTGTACTCTGACTCGCCTGACATGACTGACGGACTTGCACT (dsDNA; hemimethylated N6-methyladenine)` the Kd was 4040 ± 410 nM (ccrMIM 1-358 R350A (Caulobacter vibrioides, UniProt P0CAW2); EMSA; double-stranded DNA, one strand shown; with: sinefungin 60 µM).
